Literature values as cited in several papers.
Compare with care: the assays were run in different laboratories. Numbers after ± are the reported error.

CCCCCc1cc(O)c2c(c1)OC(C)(C)C1CCC(C(=O)OC3OC(C(=O)O)C(O)C(O)C3O)=CC21 (centres unmarked)
plasma level ratio (human, plasma; inhalation of cannabis; baseline: THC): ~7.6 fold

CC1=C(C)C(=O)OC(C(C)(O)C2(O)CCC3(O)C4CC5OC56C(O)C=CC(=O)C6(C)C4CCC32C)C1 (centres unmarked)
IC50 (MDA-MB-231; cell growth): 360 nM

CON(C(=O)c1cn(C)nc1C(F)F)C(C)Cc1c(Cl)cc(Cl)cc1Cl (centres unmarked)
LC50 (zebrafish (Danio rerio); 96 h): 0.729 mg a.i./L

CNC1C(O)C(NC)C2OC3(O)C(OC(C)C[C@H]3NC(=O)Cc3cc(Cl)ccn3)OC2C1O.Cl.Cl (some centres unmarked)
half-life (human liver microsomes): 2.6 h

CN[C@H](CC(C)C)C(=O)N[C@H]1C(=O)N[C@@H](CC(N)=O)C(=O)N[C@H]2C(=O)N[C@H]3C(=O)N[C@H](C(=O)N[C@H](C(=O)NCCCNC(=N)N)c4cc(O)cc(O)c4-c4cc3ccc4O)[C@H](O)c3ccc(c(Cl)c3)Oc3cc2cc(c3O[C@@H]2O[C@H](CO)[C@@H](O)[C@H](O)[C@H]2O[C@H]2C[C@](C)(NCc3ccc(-c4ccc(Cl)cc4)cc3)[C@H](O)[C@H](C)O2)Oc2ccc(cc2Cl)[C@H]1O
maximum tolerated dose (mouse; intravenous): ≥ 50 mg/kg

NC(CNC(CNC(CC(=O)O)C(=O)O)C(=O)O)C(=O)O (centres unmarked)
LD50 (mouse; intravenous): 160 mg/kg

[O-][N+]1=C(c2ccsc2)C2=NCCCN2c2ccccc21
logP (octanol/PBS): -0.01

NC(=O)N[C@H]1CC[C@H](CCN2CCN(c3cccc(Cl)c3Cl)CC2)CC1
half-life (human, plasma): 2 to 3 weeks

CN[C@H](CC(C)C)C(=O)N[C@H]1C(=O)N[C@@H](CC(N)=O)C(=O)N[C@H]2C(=O)N[C@H]3C(=O)N[C@H](C(=O)N[C@H](C(=O)O)c4cc(O)cc(O)c4-c4cc3ccc4O)[C@H](O)c3ccc(c(Cl)c3)Oc3cc2cc(c3O[C@@H]2O[C@H](CO)[C@@H](O)[C@H](O)[C@H]2O[C@H]2C[C@](C)(NCc3ccc(-c4ccc(Cl)cc4)cc3)[C@H](O)[C@H](C)O2)Oc2ccc(cc2Cl)[C@H]1O
volume of distribution (mouse, plasma; intravenous, 10 mg/kg): 1.28 L/kg

CN[C@](C)(C[18F])C(=O)O
brain uptake (rat (orthotopic brain tumour); 60 min): 0.05 ± 0.01 %ID/g

CCCCCCCC(=O)OC[C@H](NC(=O)[C@H](CO)NC(=O)CN)C(=O)N[C@@H](Cc1ccccc1)C(=O)N[C@@H](CC(C)C)C(=O)N[C@@H](CO)C(=O)N1CCC[C@H]1C(=O)N[C@@H](CCC(=O)O)C(=O)N[C@@H](Cc1cnc[nH]1)C(=O)N[C@@H](CCC(N)=O)C(=O)N[C@@H](CCCNC(=N)N)C(=O)N[C@H](C(=O)N[C@@H](CCC(N)=O)C(=O)N[C@@H](CCC(N)=O)C(=O)N[C@@H](CCCNC(=N)N)C(=O)N[C@@H](CCCCN)C(=O)N[C@@H](CCC(=O)O)C(=O)N[C@@H](CO)C(=O)N[C@@H](CCCCN)C(=O)N[C@@H](CCCCN)C(=O)N1CCC[C@H]1C(=O)N1CCC[C@H]1C(=O)N[C@@H](C)C(=O)N[C@@H](CCCCN)C(=O)N[C@@H](CC(C)C)C(=O)N[C@@H](CCC(N)=O)C(=O)N1CCC[C@H]1C(=O)N[C@@H](CCCNC(=N)N)C(=O)O)C(C)C
initial half-life (measured: total ghrelin; intravenous infusion, 5 pmol/kg/min, 180 min): 0.403 ± 0.0417 h

CC(=O)N1CC2(CCN(C(=O)[C@@H](CCCCN)NC(=O)[C@@H](CC(C)C)NC(=O)[C@@H](Cc3ccccc3)NC(=O)[C@H](N)Cc3ccccc3)CC2)C1
locomotor activity (mouse; 0.4 mg/kg): no effect

COC[C@@H](NC(C)=O)C(=O)NCc1ccc(OCc2ccccc2)cc1
TD50 (behavioural toxicity; rat; oral): > 250 mg/kg

CCCC(C(=O)c1ccccc1)N1CCCC1 (centres unmarked)
duration of psychosis (human; concentration not given): ≤ 6 days

OC1C=Cc2c(cc3ccc4cccc5c6ccccc6c2c3c45)C1O (centres unmarked)
intrinsic clearance (mouse liver microsomes; phase I metabolism): 11600 µL/min/mg

CC[C@H](C)[C@@H]1NC(=O)[C@H](CCCCN)NC(=O)[C@H](CCCCN)NC(=O)[C@H](Cc2ccc(O)cc2)NC(=O)[C@H](CC(C)C)NC(=O)[C@@H]2CCCN2C(=O)CNC(=O)CNC(=O)[C@@H](N)CSSC[C@@H](C(=O)N[C@@H](CCC(=O)O)C(=O)N[C@@H](CO)C(N)=O)NC(=O)[C@H](CC(C)C)NC(=O)[C@H](CCCCN)NC(=O)[C@H](CCCCN)NC(=O)[C@H]([C@@H](C)CC)NC(=O)[C@H]([C@@H](C)CC)NC(=O)[C@H](CCCCN)NC(=O)[C@H](CCCCN)NC(=O)[C@H](Cc2ccc(O)cc2)NC(=O)[C@H](CC(C)C)NC(=O)[C@@H]2CCCN2C(=O)[C@H](C)NC(=O)CNC(=O)CNC(=O)[C@H](CO)NC(=O)CNC(=O)CNC(=O)[C@H](CO)NC(=O)[C@H](CCC(=O)O)NC(=O)[C@H](CC(C)C)NC(=O)[C@H](CC(C)C)NC(=O)[C@H](CCCCN)NC(=O)[C@H](CCCCN)NC(=O)[C@H]([C@@H](C)CC)NC1=O
half-life (25% human serum in PBS; 37 °C): ~24 h

CN1CCN([C@@H](c2ccccc2)c2ccc(Cl)cc2)CC1
half-life (mouse, plasma; intraperitoneal, 50 mg/kg): 2 h

O=C(O)CCC(NP(=O)(O)OCCC[C@@H](NC(=O)CCC(NC(=O)CCCCCNC(=O)c1ccc([18F])cc1)C(=O)O)C(=O)O)C(=O)O (some centres unmarked)
tumour uptake (mouse, CWR22Rv1 xenograft, tumour; 1 h): 2.35 %ID/g

CSCC[C@H](NC(=O)CNC(=O)CNC(=O)[C@H](CO)NC(=O)[C@H](CC(C)C)NC(=O)[C@@H]1CCCN1C(=O)[C@H](CO)NC(=O)[C@H](CC(N)=O)NC(=O)[C@H](CC(C)C)NC(=O)[C@H](C)NC(=O)[C@@H](NC(=O)[C@H](CC(C)C)NC(=O)[C@H](Cc1c[nH]cn1)NC(=O)[C@H](CC(C)C)NC(=O)[C@@H](NC(=O)[C@@H]1CCCN1C(=O)[C@H](CCC(N)=O)NC(=O)[C@H](Cc1ccccc1)NC(=O)[C@H](CC(=O)O)NC(=O)[C@H](CCCNC(=N)N)NC(=O)[C@H](Cc1c[nH]cn1)NC(=O)[C@H](CO)NC(=O)[C@H](Cc1c[nH]cn1)NC(=O)[C@H](CCSC)NC(=O)[C@H](CC(=O)O)NC(=O)CNC(=O)[C@H](CCCNC(=N)N)NC(=O)[C@H](CC(=O)O)NC(=O)CNC(=O)[C@@H](N)CCCNC(=N)N)C(C)C)C(C)C)C(N)=O
elimination half-life (rat; 30 mg/kg): 3 min

O=C1NC(=O)/C(=C/c2ccc3ncnc(N4CCC(F)CC4)c3n2)S1
NOAEL (mouse; 5 days): 30 mg/kg

CC1=C(C)C(=O)OC(C(C)(O)C2(O)CCC3(O)C4CC5OC56CC=CC(=O)C6(C)C4CCC32C)C1 (centres unmarked)
IC50 (SK-BR-3; cell growth): 710 nM

CC(C)[C@@H]1CC[C@@H](C)C[C@H]1C(=O)NCCc1ccccn1
NOAEL (rat Sprague-Dawley; diet, 28 days): 10 mg/kg/day

Nc1ncnc2c1ncn2C1CC(O)C(COP(=O)(O)OP(=O)(O)C(Cl)P(=O)(O)O)O1 (mixture of isomers)
pKa4 (measured: bisphosphonate leaving group; aqueous solution; measured experimentally): 9.5

CC[C@H](C)C(=O)N1CCC(NC(=O)Nc2ccc(OC(F)(F)F)c(F)c2)CC1
oral bioavailability (rat; oral): 96%

CNC1C(O)C(NC)C2OC3(O)C(OC(C)C[C@H]3NC(=O)Cc3cscn3)OC2C1O.Cl.Cl (some centres unmarked)
half-life (human liver microsomes): 18.5 h

O=C(OCC[18F])C1C2CCC(CC1c1ccc(/C=C\I)cc1)N2 (centres unmarked)
time to peak uptake (SERT; microPET; anaesthetised, pons): 115 min

CC1(O)CC23CC(O)C4(O)C(C5OC5C4(C)C)C(C)(O)C2CCC1C3O (centres unmarked)
oral bioavailability (mouse; oral): 73.6%

C=C(C)[C@@H]1CCC(C(=O)O)=C[C@H]1c1c(O)cc(CCCCC)cc1O
decrease in Cmax (healthy volunteers; dose not given, steady state, together with: stiripentol): 13%

CC[C@@H]1CN2CCc3c([nH]c4cccc(OC)c34)[C@@H]2C[C@@H]1/C(=C\OC)C(=O)OC
LD50 (mouse; oral): > 400 mg/kg

CCN1CCCC1CNC(=O)c1cc(Br)cc(OC)c1O[11CH3] (centres unmarked)
VND (human): 2.9 mL/cm³

C[C@]12CCNC1Nc1ccc(OC(=O)Nc3ccccc3)cc12 (single isomer, unassigned; (+))
Cmax (human, plasma; 40 mg Posiphen): 3.8 ng/mL

COc1ccc(CCN2CCN(C/C=C/[125I])CC2)cc1OC
unchanged parent fraction (mouse, liver; dose not given): 90%

Some of these lines once more:
[O-][N+]1=C(c2ccsc2)C2=NCCCN2c2ccccc21
logP (octanol/PBS): -0.01

NC(=O)N[C@H]1CC[C@H](CCN2CCN(c3cccc(Cl)c3Cl)CC2)CC1
half-life (human, plasma): 2 to 3 weeks

CN[C@H](CC(C)C)C(=O)N[C@H]1C(=O)N[C@@H](CC(N)=O)C(=O)N[C@H]2C(=O)N[C@H]3C(=O)N[C@H](C(=O)N[C@H](C(=O)O)c4cc(O)cc(O)c4-c4cc3ccc4O)[C@H](O)c3ccc(c(Cl)c3)Oc3cc2cc(c3O[C@@H]2O[C@H](CO)[C@@H](O)[C@H](O)[C@H]2O[C@H]2C[C@](C)(NCc3ccc(-c4ccc(Cl)cc4)cc3)[C@H](O)[C@H](C)O2)Oc2ccc(cc2Cl)[C@H]1O
volume of distribution (mouse, plasma; intravenous, 10 mg/kg): 1.28 L/kg

CN[C@](C)(C[18F])C(=O)O
brain uptake (rat (orthotopic brain tumour); 60 min): 0.05 ± 0.01 %ID/g

CCCCCCCC(=O)OC[C@H](NC(=O)[C@H](CO)NC(=O)CN)C(=O)N[C@@H](Cc1ccccc1)C(=O)N[C@@H](CC(C)C)C(=O)N[C@@H](CO)C(=O)N1CCC[C@H]1C(=O)N[C@@H](CCC(=O)O)C(=O)N[C@@H](Cc1cnc[nH]1)C(=O)N[C@@H](CCC(N)=O)C(=O)N[C@@H](CCCNC(=N)N)C(=O)N[C@H](C(=O)N[C@@H](CCC(N)=O)C(=O)N[C@@H](CCC(N)=O)C(=O)N[C@@H](CCCNC(=N)N)C(=O)N[C@@H](CCCCN)C(=O)N[C@@H](CCC(=O)O)C(=O)N[C@@H](CO)C(=O)N[C@@H](CCCCN)C(=O)N[C@@H](CCCCN)C(=O)N1CCC[C@H]1C(=O)N1CCC[C@H]1C(=O)N[C@@H](C)C(=O)N[C@@H](CCCCN)C(=O)N[C@@H](CC(C)C)C(=O)N[C@@H](CCC(N)=O)C(=O)N1CCC[C@H]1C(=O)N[C@@H](CCCNC(=N)N)C(=O)O)C(C)C
initial half-life (measured: total ghrelin; intravenous infusion, 5 pmol/kg/min, 180 min): 0.403 ± 0.0417 h
